Measurements of several laboratories.
Parts stem from different laboratories: compare values within a part only. Positions count from the first letter of the parent shown.

Sample 1 — method: DHFR PCA, deep sequencing; medium: yeast; added: (+)-ABA 0.0091 µM; reference: wild-type fitted maximum; reading: higher = stronger binding; measurement: relative binding score
Target: ABI1, truncated, D143A, DHFR fusion (Arabidopsis thaliana)
Setting: methotrexate growth selection, single substitutions
Parent: PYL1, truncated, DHFR fusion (Arabidopsis thaliana); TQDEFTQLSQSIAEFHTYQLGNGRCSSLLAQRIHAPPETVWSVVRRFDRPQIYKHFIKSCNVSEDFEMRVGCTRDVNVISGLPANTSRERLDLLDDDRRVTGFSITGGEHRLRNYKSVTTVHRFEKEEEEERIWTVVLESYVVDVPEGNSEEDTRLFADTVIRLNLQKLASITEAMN; partner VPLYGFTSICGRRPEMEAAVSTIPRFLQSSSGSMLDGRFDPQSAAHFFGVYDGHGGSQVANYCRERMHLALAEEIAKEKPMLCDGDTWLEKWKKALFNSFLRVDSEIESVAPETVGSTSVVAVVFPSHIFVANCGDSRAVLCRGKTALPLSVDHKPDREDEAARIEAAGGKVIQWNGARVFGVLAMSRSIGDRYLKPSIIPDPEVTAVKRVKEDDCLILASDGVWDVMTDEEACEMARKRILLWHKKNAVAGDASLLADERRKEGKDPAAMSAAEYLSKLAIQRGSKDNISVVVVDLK
Substitution = S140Q; value = -3.67%
Substitution = T101Y; value = 3.32%
Substitution = L8I; value = 13.5%
Substitution = D144M; value = -3.76%
Substitution = D97W; value = -4.59%
Substitution = T39K; value = 8.97%
Substitution = Y141N; value = -3.07%
Substitution = S42L; value = -3.65%

Sample 2 — method: competition protein-binding microarray; form: double-stranded DNA, one strand shown; medium: in vitro; tested at: 2 µM; added: Pho4 competitor, 0.05 µM; reading: higher = stronger binding; measurement: fluorescence intensity
Target: Centromere-binding protein 1, full length, His-tagged (CBF1, Saccharomyces cerevisiae, UniProt P17106, residues 1-351)
Chain of UniProt P17106 (whole entry, looked up): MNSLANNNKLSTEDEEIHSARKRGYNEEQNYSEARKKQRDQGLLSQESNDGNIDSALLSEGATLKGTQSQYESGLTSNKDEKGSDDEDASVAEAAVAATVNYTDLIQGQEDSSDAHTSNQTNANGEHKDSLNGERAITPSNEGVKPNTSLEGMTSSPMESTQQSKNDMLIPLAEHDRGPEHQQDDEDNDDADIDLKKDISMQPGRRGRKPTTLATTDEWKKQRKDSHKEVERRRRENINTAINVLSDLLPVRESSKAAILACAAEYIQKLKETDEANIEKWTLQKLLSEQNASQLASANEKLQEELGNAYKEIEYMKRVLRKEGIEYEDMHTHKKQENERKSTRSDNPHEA
Setting: whole 60-bp probe, lowest competitor level
Strand = CTGCTTCACAGTTTGCACGTAACTTGCTGAGGGGCCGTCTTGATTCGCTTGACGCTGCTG; value = 80.2 a.u.
Strand = AAAGCGGTAATTTGTCACATGACTTCACATATCTATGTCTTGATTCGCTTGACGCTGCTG; value = 3160 a.u.
Strand = ATCTTGACATTAGATCAGCTGATAAGTTTTCAACTTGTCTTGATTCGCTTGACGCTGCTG; value = 899 a.u.
Strand = CGCGATGTTCTCAGCATCGTGTAACCTTTGCTCGTAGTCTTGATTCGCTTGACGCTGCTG; value = 71.5 a.u.
Strand = CTCCTTTGGGATACCACCGTGGGTAATCTCAGCGGGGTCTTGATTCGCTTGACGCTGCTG; value = 56.7 a.u.
Strand = ACCGGTGCAACTTTCCACATGCACTCTCATTGAGACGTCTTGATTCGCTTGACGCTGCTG; value = 94.3 a.u.
Strand = GTCTTGTCTCATTGCAAGGTGGGTGTCCCCACTTCAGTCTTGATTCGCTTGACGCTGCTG; value = 68.2 a.u.
Strand = AAAGGCCATACCCGTCACAGTCCATCACAGAACCGCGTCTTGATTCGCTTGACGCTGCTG; value = 64.3 a.u.

Sample 3 — target: CCNA1, cyclin fold, Cln2 fusion (human); method: yeast growth competition, sequencing; medium: yeast; setting: weak parent motif; reference: not given; reading: higher = stronger binding; measurement: normalised enrichment score
Parent: WEE1 docking peptide (human); HKTFRKLRLFDTP
Substitution = K2C; value = 0.0943
Substitution = K6E; value = 0.149
Substitution = L7P; value = 0.384
Substitution = F4V; value = 0.254
Substitution = R5G; value = -0.247
Substitution = D11M; value = 0.0566
Substitution = T12V; value = 0.36

Further values, each from its own experiment
Substance = PhoQ, residues 284 288 289 292 302 303 TLMATV; target = PhoP, residues 12 14 15 18 19 DLLYY (Escherichia coli, UniProt P23836); test = Sort-seq, refers to: YFP reporter; test system = E. coli; setting = PhoQ-PhoP variant library, added: 10 µM Mg2+; how to read = reference: high Mg2+ state, higher = stronger signaling; measurement = fold induction; value = 1.43
